Results collected from several papers.
± marks the error that the study gave.
Target: Cytochrome P450 2D6 (CYP2D6, Homo sapiens, UniProt P10635)

SMILES	assay	system	conditions	endpoint	value
C[C@@H](c1ccc2nccn2c1)n1nnc2ncc(-c3cn[nH]c3)nc21		human liver microsomes	10 and 50 µM, 30 min preincubation, together with: ± NADPH	time-dependent inhibition	< 20%
CC(=O)c1cccc(-c2nc(Nc3ccccc3)nc(N3CCOCC3)n2)c1			10 µM	inhibition	12%
C[C@H](NCc1ccc(-c2ccc(C(F)(F)F)cc2)cc1)C(N)=O	P450-Glo luminescence	potassium phosphate buffer	10 µM, pH 7.4, isoform 2D6	inhibition	89.3%
N#Cc1cccc2c1C1(CCN(C(=O)c3cnc4[nH]ncc4c3)CC1)C(=O)N2CC(=O)NCC(F)(F)F	enzyme activity, inhibitor			IC50	40 µM
C[C@@H](c1ccc2nccn2c1)n1nnc2nc(O)c(-c3cnn(C)c3)nc21	enzyme activity, inhibitor	human, liver microsomes		IC50	> 50 µM
CN[C@@H]1[C@H](O)[C@H](NC)[C@H]2O[C@]3(O)[C@H](O[C@@H]2[C@H]1O)O[C@H](C)C[C@H]3NC(=O)Cc1cc(Cl)ccn1			10 µM	inhibition	-1%
N#Cc1c(Cl)ccc2c1C1(CCN(C(=O)c3cnc4[nH]ncc4c3)CC1)C(=O)N2CC(=O)NCC(F)(F)F	enzyme activity, inhibitor			IC50	18 µM
Cc1cc(-c2ccc3ccccc3c2)nnc1NCCN1CCN(C)CC1	substrate	recombinant enzyme	100 nM	half-life	> 1 h
O=C(CN1C(=O)C2(CCN(C(=O)c3ccc4[nH]ncc4c3)CC2)c2ccccc21)NCC(F)(F)F	enzyme activity, inhibitor			IC50	10 µM
CCN(CC)CCOc1ccc(-c2nnn(Cc3ccc(OC)cc3)c2N)cc1	CYP phenotyping		concentration not given	inhibition	1.1%

For quick reference, copied from above:
SMILES	assay	system	conditions	endpoint	value
C[C@@H](c1ccc2nccn2c1)n1nnc2ncc(-c3cn[nH]c3)nc21		human liver microsomes	10 and 50 µM, 30 min preincubation, together with: ± NADPH	time-dependent inhibition	< 20%
